# Results pooled from the literature.
# Each line is one published result; not all experiments were run side by side. Several values in a cell are separate wells, animals, samples, runs or records.
# Target: Maternal embryonic leucine zipper kinase (MELK, Homo sapiens, UniProt Q14680)
SMILES,assay,test system,conditions,how to read,quantity,value
Cc1ccc(-c2c(/C=C(\C#N)C(=O)NC(C)C)n(CCCO)c3ncnc(N)c23)cc1,"cell-free assay, competition with immobilised ligand",,1 µM,,remaining binding,100%
N[C@H]1CC[C@H](Nc2nccc(-c3cccnc3Oc3ccc(NC(=O)NC4CC4)c4ccccc34)n2)CC1,kinobead competition pulldown,HEK293/HCT116 lysate mixture,"10 µM, 1 h, 4 °C",lower = stronger competition,log2 LFQ intensity,21.6 and 21.5 and 21.8
CN1CCN(Cc2ccc(-c3ccc(CO[C@H]4CCC[C@@H]4NC(=O)c4cc(-c5cnn(C)c5)cnc4N)cc3)cc2)CC1,"enzyme activity, inhibitor",,0.1 µM,,inhibition,20%
CNC(=O)C1CCN(c2cc(C)c(F)cc2NC(=O)c2ccc(-c3cc(O)ccc3C)c(C)c2)CC1,"binding, competition with immobilised ligand",,1 µM,,remaining binding,60%
COc1cc(Nc2nccc(-c3cnn4nc(OC)ccc34)n2)cc(C(F)(F)F)c1,"binding, competition with immobilised ligand",,1 µM,,remaining binding,100%
COCC12C(=O)NC3C4(C(OC)CC1O)C1CC5(O)C(OC)C(O)C(OC(C)=O)(C1C5OC(=O)c1ccccc1)C3(O)C(OC)C24 (centres unmarked),"kinase activity, inhibitor, ProQinase kinase profiling",,25 µM,relative to: control,remaining activity,96% and 92%
C=CC(=O)Nc1cccc(-c2cnc3[nH]cc(C(=O)NC(C)(C)C)c3n2)c1,kinase activity,,0.1 µM,,inhibition,11%
NC(=O)C[C@H]1CCc2sc3ncnc(O[C@H]4CC[C@H](N5CCOCC5)CC4)c3c21,"enzyme activity, inhibitor",,10 µM,,inhibition,9%
O=C(Nc1ccc(Oc2ncnc3[nH]cc(-c4ccccc4)c23)c(F)c1)c1c2n(n(-c3cc(F)ccc3F)c1=O)CCCC2,"enzyme activity, inhibitor",,0.5 µM,,inhibition,10%
C=CC(=O)N1Cc2nc(-c3cc(-c4cc(Cl)cnc4Cl)c(F)cc3F)n(-c3ccncn3)c2C1,"cell-free assay, inhibitor",,1 µM,,inhibition,13.3%
Cc1cccc(O[C@H]2CCC[C@@H](C(C)CNCc3ccncc3)C2)c1 (relative stereo),"enzyme activity, inhibitor",,1 µM,,inhibition,3%
CCn1cc(C(=O)O)c(=O)c2c(N)c(F)c(NC3CCCCC3)cc21,kinase activity,,"0.1 µM, together with: ATP at Km",,inhibition,19.7%
Cc1cccc(-c2ccc3nc(NC(=O)C4CCOCC4)nn3c2)c1,"enzyme activity, Dundee kinase panel",,10 µM,,remaining activity,69%
O=C=[N][Ru-4]123([n]4c5ccc(O)cc5c5c6c(c7cc(F)c[n+]1c7c54)C(=O)NC6=O)[S+]1CC[S+]2CC[S+]3CC1 (centres unmarked),enzyme activity,,"100 nM, human enzyme, together with: 10 µM ATP",relative to: untreated,remaining activity,4%
C=CC(=O)N1CCc2ccc(-n3c(=O)ccc4cnc5ccc(-c6cnn(C)c6)cc5c43)cc21,KINOMEscan,,1 µM,relative to: DMSO control,remaining binding,100%
Cc1cnc2nc1Nc1cccc(c1)COC/C=C/COCc1cc(ccc1OCCN1CCOCC1)N2,binding,,0.1 µM,,remaining binding,93%
COc1ccc(NC(=O)Nc2ccc3c(c2)C(=O)N(C(C)CO)CC(C)C(CN(C)Cc2ccc4c(c2)OCO4)O3)cc1 (centres unmarked),"kinase activity, KinaseProfiler",,"0.03 µM, species human",relative to: control,remaining activity,98%
CCN1CCN(Cc2ccc(C(=O)Nc3ccc(C)c(NCc4cnc5[nH]ccc5c4OC)c3)cc2C(F)(F)F)CC1,"binding, competition with immobilised ligand",,1 µM,,remaining binding,73%
Cc1cccc(-c2ccc3nc(NC(=O)C4CCCO4)nn3c2)c1 (centres unmarked),"enzyme activity, Dundee kinase panel",,10 µM,,remaining activity,65%
CC(C)=CC1OC(C)(C)C2C=C3C(=O)C(Cl)=CC(O)C3C3C(O)C4OC4C(=O)C132 (centres unmarked),"cell-free assay, competition with immobilised ligand",,10 µM,,remaining binding,97%

# A few entries again:
SMILES,assay,test system,conditions,how to read,quantity,value
COCC12C(=O)NC3C4(C(OC)CC1O)C1CC5(O)C(OC)C(O)C(OC(C)=O)(C1C5OC(=O)c1ccccc1)C3(O)C(OC)C24 (centres unmarked),"kinase activity, inhibitor, ProQinase kinase profiling",,25 µM,relative to: control,remaining activity,96% and 92%
CCN1CCN(Cc2ccc(C(=O)Nc3ccc(C)c(NCc4cnc5[nH]ccc5c4OC)c3)cc2C(F)(F)F)CC1,"binding, competition with immobilised ligand",,1 µM,,remaining binding,73%
Cc1cnc2nc1Nc1cccc(c1)COC/C=C/COCc1cc(ccc1OCCN1CCOCC1)N2,binding,,0.1 µM,,remaining binding,93%
